Experimental data from different studies.
Lines come from different studies, so protocols differ. “And” joins repeats or separate records; there may be more than shown. ± gives the spread as reported.

CCc1c(C)nc(-c2ccc(Cl)s2)nc1Nc1ccc(CC(=O)O)cc1 — TUNEL-positive cells (C57BL/6J mice, high-fat diet, liver; intraperitoneal, 0.3 mg/kg daily, 60% fat diet 12 weeks, dosed last four; relative to: vehicle): decreased
O[C@H]1CCCN[C@@H]1CCCn1cnc2c(Cl)c(Cl)ccc21 — maximum reduction (ELISA, item: Pro-C6; healthy human volunteers, serum; intraduodenal, 200 mg twice daily, day 14, multiple ascending dose): 13.8%
Cc1cn(-c2ccc3n(c2=O)CCN([C@@H](C)[C@@H]2CC[C@H](c4cc(F)c(Cl)cc4C(F)(F)F)O2)C3=O)cn1 — maximum CSF Aβ38 increase (human, CSF; 300 mg single dose, serial CSF sampling; relative to: placebo and baseline): 46%
CCCCOc1nc(N)c2c(n1)N(Cc1cccc(CN3CCCC3)c1)CC(=O)N2 — TLR7 mRNA level (human, blood; dose not given, 12 h, alone): increased
O=C(NC[C@H]1CN(c2ccc(N3CCOCC3=O)cc2)C(=O)O1)c1ccc(Cl)s1 — maximum prothrombin time prolongation (human normal renal function, plasma; 10 mg, mean, unit not given; relative to: baseline): 9.55
O=C(O)CCC(=O)O.[2H]C([2H])([2H])Oc1cc(C)c2[nH]ccc2c1CN1CC[C@@H](C2CC2)C[C@H]1c1ccc(C(=O)O)cc1 — maximum inhibition (EIA, item: complement fragment Bb; human, plasma; 50 mg twice daily, multiple ascending dose): 53.4%
COc1cc2cc(-c3ccc(CC(=O)Nc4cc(C(C)(C)C(F)(F)F)no4)cn3)cnc2cc1OC — best overall response PR (RECIST v1.1; human RET fusion-positive NSCLC; 75 mg, phase I): 42%
C=CC[C@@H]1/C=C(\C)C[C@H](C)C[C@H](OC)[C@H]2O[C@@](O)(C(=O)C(=O)N3CCCC[C@H]3C(=O)O[C@H](/C(C)=C/[C@@H]3CC[C@@H](O)[C@H](OC)C3)[C@H](C)[C@@H](O)CC1=O)[C@H](C)C[C@@H]2OC — urinary EGF excretion (ELISA; rat; intraperitoneal, 0.5 mg/kg/day, day 18; relative to: vehicle): decreased
CC[C@H](C)/C=C/C(=O)N1C[C@@H](C)C[C@H]1C(=O)N[C@@H](CCC1CCCCC1)C(=O)N[C@@H](CC(C)C)C(=O)NC(C)(C)C(=O)N[C@@H](CC(C)C)C(=O)N[C@@H](CC(C)C)C(=O)NC(C)(C)C(=O)NC(C)(C)C(=O)NCCC(=O)N[C@@H](C)CN(C)C — calcein leakage (small unilamellar vesicles; concentration not given): 31.2%
CN1CC[C@H](c2c(O)cc(O)c3c(=O)cc(-c4ccccc4Cl)oc23)[C@H](O)C1 — RNA Pol II CTD Ser5 phosphorylation (zebrafish embryos; dose not given, 24 hpf): decreased
CC[C@H](C)[C@H](NC(=O)[C@H](CO)NC(=O)[C@H](CCCNC(=N)N)NC(C)=O)C(=O)N[C@H]1CSSC[C@@H](C(=O)N[C@H](C(N)=O)[C@@H](C)O)NC(=O)[C@H](CCCNC(=N)N)NC(=O)[C@H](Cc2c[nH]cn2)NC(=O)[C@H](C)NC(=O)CNC(=O)[C@H](Cc2c[nH]c3ccccc23)NC(=O)[C@H](CC(=O)O)NC(=O)[C@H](CCC(N)=O)NC(=O)[C@H](Cc2c[nH]c3ccccc23)NC(=O)[C@H](C(C)C)NC1=O — IC50 (complement activation, inhibitor, ELISA, item: C3b; normal human serum): 0.58 ± 0.1 µM
C[C@H](Oc1ccc(Br)cc1-c1ccon1)C(=O)O — relative refractory period difference (muscle velocity recovery cycles; human, tibialis anterior muscle; 1200 mg single dose, 3.5 h; relative to: placebo): -0.02 ms
CC(CCc1ccc(O)cc1)NCCc1ccc(O)c(O)c1 (stereo not drawn) — mean arterial pressure rise (anaesthetised instrumented rat; iv infusion, 1 µg/kg/min, 5 min, first infusion; relative to: baseline): 3%
C=CC(=O)N1CCC(c2ccc(C(N)=O)c(-c3ccc(Oc4ccccc4)cc3)n2)CC1 — PR (tumour response, Lugano classification; patients with relapsed/refractory MCL; investigator assessed, 10.5 months follow-up): 51.9%
Cc1cc(C)n(Cc2ccc(C(=O)NC3CS(=O)(=O)c4ccccc43)cc2)n1 (stereo not drawn) — IC50 (CoA-CPM signal reduction, CPM fluorescence thiol; cell-free biochemical; assay interference counter-screen, with: CoA replacing acetyl-CoA): > 125 µM
Cc1ccc([C@@H]2O[C@H](CO)[C@@H](O)[C@H](O)[C@H]2O)cc1Cc1ccc(-c2ccc(F)cc2)s1 — change in fasting plasma glucose (Japanese type 2 diabetes patients; 100 mg, day 2; relative to: day 1): -19 mg/dL
O=S1(=O)C=C(Br)c2ccccc21 — IC50 (CoA-CPM signal reduction, CPM fluorescence thiol; cell-free biochemical; assay interference counter-screen, with: CoA replacing acetyl-CoA): > 125 µM
COC[C@@H](c1ccc(C(F)(F)F)cc1)N1CCN(C2(C)CCN(C(=O)c3c(C)ncnc3C)CC2)C[C@@H]1C — change in HIV-1 RNA (HIV-1 infected patients, plasma; 10 mg, week 48, with optimized background regimen; relative to: baseline): -2.39 log10 copies/mL
CO[C@@H]1[C@@H](OC(N)=O)[C@@H](O)[C@H](Oc2ccc3c(O)c(NC(=O)c4ccc(O)c(CC=C(C)C)c4)c(=O)oc3c2C)OC1(C)C — colony survival (Brca1 cc/cc MEFs, mouse; 50 µM): 88.5% and 84.8% and 80.7% and 91.3% and 75.3%
O=C(O)CNC(=O)Cc1ccccc1 — sarcomere length (ventricular cardiomyocytes, C57BL/6 mouse; dose not given, 0.416 s): 1.72 µm
NCC(=O)Nc1cncc(-c2nn3c(=O)cc(N4CCNCC4)nc3s2)c1 — inhibition (ADP-induced platelet aggregation, light transmission aggregometry; human, stable CAD on aspirin, platelets ex vivo; subcutaneous, 0.075 mg/kg, 60 min post-dose, with: ADP 20 µM): 63.1%
NC(=O)c1cnc2[nH]ccc2c1N[C@@H]1[C@@H]2CC3C[C@H]1C[C@@](O)(C3)C2 — percent change (regulatory T cells, flow cytometry; Japanese humans, peripheral blood; 20 mg single dose; relative to: baseline): 0.57%
Cc1noc(C)c1-c1cc(C(O)(c2ccccn2)c2ccccn2)c2nc(C3CC3)[nH]c2c1 — maximum inhibition (item: CCR2 expression; human, peripheral blood; 6 mg, day 1, 1604 study, with: enzalutamide): 37%
Cc1ccc(-c2nsc(N)n2)o1 — IC50 (CoA-CPM signal reduction, CPM fluorescence thiol; cell-free biochemical; assay interference counter-screen, with: CoA replacing acetyl-CoA): > 125 µM
C[C@H]1C[C@H]2CSC(N)=N[C@@]2(c2nc(NC(=O)c3ccc(OC(F)F)cn3)cs2)CO1 — percent change from baseline (item: Aβ1-40; healthy adults, plasma; 200 mg single dose, 6 h post-dose; relative to: placebo): -84.3%
CC(C)NCC(O)c1ccc(O)c(O)c1 (stereo not drawn) — sarcomere length (ventricular cardiomyocytes, C57BL/6 mouse; dose not given, 0.692 s): 1.72 µm
N#Cc1ccc2c(-c3ccncc3)c(-c3ccc(F)cc3)nn2c1 — log2 fold change (kinase binding, competitor, MIB/MS competition, item: RIM8; Candida albicans cell lysate; 10 µM; relative to: DMSO): 0.0776
CN(C)C(=O)Oc1cccc([N+](C)(C)C)c1 — train-of-four ratio (neuromuscular block reversal; rat; dose not given, 16 (unit not given), with: cisatracurium; relative to: T1 twitch): 96.5
CC(c1cc2ccccc2s1)N(O)C(N)=O (stereo not drawn) — amount (item: 14-HDHA; human whole blood; 3 µM, with: Escherichia coli): 1540 ± 366 pg/mL blood
CN(C)C(=O)c1cc2cnc(Nc3ccc(N4CCNCC4)cn3)nc2n1C1CCCC1 — normalized enrichment score (RNA-seq GSEA, item: HALLMARK_HEME_METABOLISM; MB002 tumour; concentration not given, in vivo; relative to: vehicle, direction not given): -1.2
O=C(NC1CS(=O)(=O)c2ccccc21)c1cc2ccccc2s1 (stereo not drawn) — IC50 (CoA-CPM signal reduction, CPM fluorescence thiol; cell-free biochemical; assay interference counter-screen, with: CoA replacing acetyl-CoA): > 125 µM
N#Cc1ccc(Oc2ccc3c(c2)COB3O)cc1 — IL4 level difference (mouse, oxazolone dermatitis, plasma; topical, 20 mg/ear, once daily, unit not given; relative to: vehicle): -28.9
CN[C@@H]1COc2c(S(=O)(=O)NC(=O)Nc3c4c(cc5c3CCC5)CCC4)cnn2C1 — inhibition (item: IL-18; human participants, whole blood ex vivo; 900 mg twice daily, multiple doses, 12 h, IL-18, circulating, adjusted for, with: LPS/ATP; relative to: baseline): 98.1%
C[C@@H](O)CCOC(=O)C[C@@H](C)O — plasma insulin (human; oral drink, dose not given, 90 min post dose, median, all participants): 620 pg/mL
Cn1cc(Nc2nccc(-c3ccc4c(c3)CN(C3COC3)CC[C@H]4NC(=O)c3cn(C(C)(C)C)nn3)n2)cn1 — pathway activation z-score (item: Glutaryl-CoA Degradation; splenic B cells, Mus musculus; 30 mg/kg, with: IgD activation; relative to: vehicle, direction not given): 1
O=S1(=O)C=C(N2CCOCC2)c2ccccc21 — IC50 (CoA-CPM signal reduction, CPM fluorescence thiol; cell-free biochemical; assay interference counter-screen, with: CoA replacing acetyl-CoA): > 125 µM

Excerpt of the above:
C[C@H]1C[C@H]2CSC(N)=N[C@@]2(c2nc(NC(=O)c3ccc(OC(F)F)cn3)cs2)CO1 — percent change from baseline (item: Aβ1-40; healthy adults, plasma; 200 mg single dose, 6 h post-dose; relative to: placebo): -84.3%
Cn1cc(Nc2nccc(-c3ccc4c(c3)CN(C3COC3)CC[C@H]4NC(=O)c3cn(C(C)(C)C)nn3)n2)cn1 — pathway activation z-score (item: Glutaryl-CoA Degradation; splenic B cells, Mus musculus; 30 mg/kg, with: IgD activation; relative to: vehicle, direction not given): 1
Cc1ccc(-c2nsc(N)n2)o1 — IC50 (CoA-CPM signal reduction, CPM fluorescence thiol; cell-free biochemical; assay interference counter-screen, with: CoA replacing acetyl-CoA): > 125 µM
